Experimental data pooled from the literature.
Compare with care: the assays were run in different laboratories. ± gives the spread as reported.
polA D424A: polA fragment D424A (Escherichia coli)
B1: PPIP5K2 (Homo sapiens, UniProt O43314); chain MSEAPRFFVGPEDTEINPGNYRHFFHHADEDDEEEDDSPPERQIVVGICSMAKKSKSKPMKEILERISLFKYITVVVFEEEVILNEPVENWPLCDCLISFHSKGFPLDKAVAYAKLRNPFVINDLNMQYLIQDRREVYSILQAEGILLPRYAILNRDPNNPKECNLIEGEDHVEVNGEVFQKPFVEKPVSAEDHNVYIYYPTSAGGGSQRLFRKIGSRSSVYSPESNVRKTGSYIYEEFMPTDGTDVKVYTVGPDYAHAEARKSPALDGKVERDSEGKEVRYPVILNAREKLIAWKVCLAFKQTVCGFDLLRANGQSYVCDVNGFSFVKNSMKYYDDCAKILGNIVMRELAPQFHIPWSIPLEAED
B2: genB3 (Micromonospora echinospora, UniProt Q2MG50); chain MDSANLTNRGLVERARRVTAAENYDIGTRFSAMIQSGEGAWLTDVEGNRYVDLTASSGTIILGHRNQAVTEAITRQIRDFGTAFASTLSVPRVELAERLCERYECAEKVVFHKTGSEGTAMAARLARAATGRELILSCGYHGWHEWQLAGETFGYQQTTGVVGFGYNEKALAKMLEAFGNEVAGVLISPELLYFDVEFYQRMYALCARYDVPFMMDEVYTGFRAGPKGVHGLGVPADVVVVSKGLANGHSLAAVMGRRDIIDAYDVSGIQGTYTREVPPMAAAMAVLDVLDTPGVYEHAEAMGRRLADGMREILTGEGIPNWVGGPALMFDTVLPNDDLGWEIYKTAHDFGVYFEDSGTQLVTTAFDEAAVDHALTAFRKATRQVIADRPDIAPTSGGELTEERKLDFAEEAFGGLLRDDERTNALIDETIEKVVNRDRSIKPVLIPAQN
B3: DTYMK (Homo sapiens, UniProt P23919); chain MAARRGALIVLEGVDRAGKSTQSRKLVEALCAAGHRAELLRFPERSTEIGKLLSSYLQKKSDVEDHSVHLLFSANRWEQVPLIKEKLSQGVTLVVDRYAFSGVAFTGAKENFSLDWCKQPDVGLPKPDLVLFLQLQLADAAKRGAFGHERYENGAFQERALRCFHQLMKDTTLNWKMVDASKSIEAVHEDIRVLSEDAIRTATEKPLGELWK
B4: enzyme (Streptomyces venezuelae, UniProt Q9ZGI2); chain SGADTGAGAGMFRALFRQAVEDDRYGEFLDVLAEASAFRPQFASPEACSERLDPVLLAGGPTDRAEGRAVLVGCTGTAANGGPHEFLRLSTSFQEERDFLAVPLPGYGTGTGTGTALLPADLDTALDAQARAILRAAGDAPVVLLGHSGGALLAHELAFRLERAHGAPPAGIVLVDPYPPGHQEPIEVWSRQLGEGLFAGELEPMSDARLLAMGRYARFLAGPRPGRSSAPVLLVRASEPLGDWQEERGDWRAHWDLPHTVADVPGDHFTMMRDHAPAVAEAVLSWLDAIEGIEGAGK
B5: genB3 Q310N (Micromonospora echinospora, UniProt Q2MG50); chain MDSANLTNRGLVERARRVTAAENYDIGTRFSAMIQSGEGAWLTDVEGNRYVDLTASSGTIILGHRNQAVTEAITRQIRDFGTAFASTLSVPRVELAERLCERYECAEKVVFHKTGSEGTAMAARLARAATGRELILSCGYHGWHEWQLAGETFGYQQTTGVVGFGYNEKALAKMLEAFGNEVAGVLISPELLYFDVEFYQRMYALCARYDVPFMMDEVYTGFRAGPKGVHGLGVPADVVVVSKGLANGHSLAAVMGRRDIIDAYDVSGINGTYTREVPPMAAAMAVLDVLDTPGVYEHAEAMGRRLADGMREILTGEGIPNWVGGPALMFDTVLPNDDLGWEIYKTAHDFGVYFEDSGTQLVTTAFDEAAVDHALTAFRKATRQVIADRPDIAPTSGGELTEERKLDFAEEAFGGLLRDDERTNALIDETIEKVVNRDRSIKPVLIPAQN
B6: AK1 (Homo sapiens, UniProt P00568); chain MEEKLKKTKIIFVVGGPGSGKGTQCEKIVQKYGYTHLSTGDLLRSEVSSGSARGKKLSEIMEKGQLVPLETVLDMLRDAMVAKVNTSKGFLIDGYPREVQQGEEFERRIGQPTLLLYVDAGPETMTQRLLKRGETSGRVDDNEETIKKRLETYYKATEPVIAFYEKRGIVRKVNAEGSVDSVFSQVCTHLDALK
B7: protein (Thermotoga neapolitana, UniProt B9K712); chain MKMLYDLAKKRKTVRRFKKEKPPLEDLIYSLKVANEAPSGMNAQPWRFLIVEDEKLKGQIRRVCERSEKTFYENVRGRLKEWLDEKRFTWRKPFLKEAPYLLLVFSEKSAPYSRESVWLAVGYLLLALEEKGLGSVPYTPPDFREVEKLVNTPSELRLEVILPVGYPDDPKPKYPRNEVIVRYNTF
B8: curN (Lyngbya majuscula, UniProt Q6DND9); chain AGVPVAGRAQSQPPLQLPISSEFPFAKRTVEVEGATIAYVDEGSGQPVLFLHGNPTSSYLWRNIIPYVVAAGYRAVAPDLIGMGDSAKPDIEYRLQDHVAYMDGFIDALGLDDMVLVIHDWGSVIGMRHARLNPDRVAAVAFMEALVPPALPMPSYEAMGPQLGPLFRDLRTADVGEKMVLDGNFFVETILPEMGVVRSLSEAEMAAYRAPFPTRQSRLPTLQWPREVPIGGEPAFAEAEVLKNGEWLMASPIPKLLFHAEPGALAPKPVVDYLSENVPNLEVRFVGAGTHFLQEDHPHLIGQGIADWLRRNKPHAS
B9: FNO G29S (Thermobifida fusca, UniProt Q47RA9); chain MIMIMASKSSPHDLPDVSGLSIAVLGGTSDQGRGLARRFAMAGHEVILGSRSAERAQAVAAELGEGLPVRGMDNAGAAEAGDVVIVAVPWDGHRALLESLKDVLAGKIVVDCVNPLGFDKRGAYALPVEEGSAAEQAAAILPDSRVVAAFHHVSAVLLLDPEVEKVDLDVLVLGDDREATDVVRALAARIPGVRGVYGGRLRNAHQVEAFTANLISINRRYKAHAGIRITDI
Chain of UniProt Q94JM3 (whole entry, looked up): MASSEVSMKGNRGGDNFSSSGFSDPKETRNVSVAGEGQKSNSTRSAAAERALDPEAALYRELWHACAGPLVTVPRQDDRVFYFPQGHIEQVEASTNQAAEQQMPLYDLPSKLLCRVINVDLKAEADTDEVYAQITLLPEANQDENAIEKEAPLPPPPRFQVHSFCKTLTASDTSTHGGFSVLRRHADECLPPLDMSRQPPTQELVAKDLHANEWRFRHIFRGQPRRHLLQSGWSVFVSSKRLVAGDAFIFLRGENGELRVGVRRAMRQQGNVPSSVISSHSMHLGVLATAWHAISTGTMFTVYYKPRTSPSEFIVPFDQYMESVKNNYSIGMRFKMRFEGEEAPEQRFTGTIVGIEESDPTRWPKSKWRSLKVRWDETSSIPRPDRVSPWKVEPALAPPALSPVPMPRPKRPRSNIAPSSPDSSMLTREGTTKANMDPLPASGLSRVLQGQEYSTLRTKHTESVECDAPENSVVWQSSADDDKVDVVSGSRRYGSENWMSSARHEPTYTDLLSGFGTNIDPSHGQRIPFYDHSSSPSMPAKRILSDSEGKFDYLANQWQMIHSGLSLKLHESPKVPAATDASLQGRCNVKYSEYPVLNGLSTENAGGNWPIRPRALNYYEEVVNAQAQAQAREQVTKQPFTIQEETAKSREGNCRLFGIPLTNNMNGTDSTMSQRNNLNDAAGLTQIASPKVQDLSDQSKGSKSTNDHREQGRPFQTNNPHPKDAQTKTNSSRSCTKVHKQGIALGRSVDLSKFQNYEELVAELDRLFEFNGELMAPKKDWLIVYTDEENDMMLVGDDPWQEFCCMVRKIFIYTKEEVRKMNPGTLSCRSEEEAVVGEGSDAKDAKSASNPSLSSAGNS

CCTCTTCCCTCACCTCTTCTTGACCTCATTCGTACCCATTGACCTTCGCAACCACCTGCGAAGGTCAATGGGTACGAATGAGGT (hairpin DNA; hairpin, 5' overhang, 3' ddT)
Kd (polA D424A; SPR; together with: dCTP 100 µM): 90 ± 80 pM

B1 (PPIP5K2)
kcat/Km (O=P(O)(O)O[C@@H]1[C@@H](OP(=O)(O)O)[C@H](OP(=O)(O)OP(=O)(O)O)[C@@H](OP(=O)(O)O)[C@H](OP(=O)(O)OP(=O)(O)O)[C@@H]1OP(=O)(O)O; steady-state kinetics): 8.5e+06 M⁻¹ s⁻¹

B2 (genB3)
kcat/Km (CN[C@@H]1[C@@H](O)[C@@H](O[C@@H]2[C@@H](O)[C@H](O[C@H]3O[C@H](CN)[C@@H](O)[C@H](OP(=O)(O)O)[C@H]3N)[C@@H](N)C[C@H]2N)OC[C@]1(C)O; steady-state kinetics; 30 °C): 59.3 M⁻¹ s⁻¹

enzyme (Actinoalloteichus caeruleus, UniProt M1F4W9)
kcat/Km (CC(C)C[C@H](NC(=O)c1cc(O)cc(-c2ccccn2)n1)C(=O)O; steady-state kinetics; pH 8, 30 °C): 8440 M⁻¹ s⁻¹

B3 (DTYMK)
kcat/Km (Cc1cn([C@H]2C[C@H](O)[C@@H](COP(=O)(O)O)O2)c(=O)[nH]c1=O; steady-state kinetics; together with: ATP 2 mM, Mg2+ 2 mM): 150000 M⁻¹ s⁻¹

AGTCTTTTTGGTCTCTGGTCGGTCGACAATCCGTGTG (dsDNA; 5-C6-amino-dT labels)
K1/2 (ARF2 1-395 (Arabidopsis thaliana, UniProt Q94JM3); smFRET titration; double-stranded DNA, one strand shown): 362 nM

B4 (enzyme)
kcat/Km (CC[C@H](O)[C@H](C)/C=C/C(=O)[C@H](C)C[C@H](C)[C@H](OC)[C@@H](C)C(=O)SCCNC(C)=O; steady-state kinetics): 138 ± 2.67 M⁻¹ s⁻¹

B5 (genB3 Q310N)
kcat/Km (CN[C@@H]1[C@@H](O)[C@@H](O[C@@H]2[C@@H](O)[C@H](O[C@H]3O[C@H](CN)[C@@H](O)[C@H](OP(=O)(O)O)[C@H]3N)[C@@H](N)C[C@H]2N)OC[C@]1(C)O; steady-state kinetics; 30 °C): 103 M⁻¹ s⁻¹

enzyme (Streptomyces platensis, UniProt A0A0A0V031)
kcat/Km (C[C@@]12CCC[C@@](C)(C(=O)OP(=O)(O)OC[C@H]3O[C@@H](n4cnc5c(N)ncnc54)[C@H](O)[C@@H]3O)[C@H]1C[C@@H](O)[C@]13C[C@H]4C[C@H](O[C@@]4(C)C1)[C@@H]23; steady-state kinetics; pH 7.8, 25 °C): 1.5e+07 M⁻¹ s⁻¹

B6 (AK1)
kcat/Km (Nc1ccn(C2OC(COP(=O)(O)O)C(O)C2O)c(=O)n1; steady-state kinetics): 10000 M⁻¹ s⁻¹

B7 (protein)
kcat/Km (N[C@@H](Cc1ccc(O)c(Cl)c1)C(=O)O; steady-state kinetics; pH 7.4, 60 °C): 10000 ± 5000 M⁻¹ s⁻¹

B8 (curN)
kcat/Km (CC1=[N+]2C(=C(CCl)c3ccc(C)n3[B-]2(F)F)C=C1; steady-state kinetics; pH 8, 30 °C): 1.26e+07 M⁻¹ s⁻¹

GACAUGGUCCGGUAGUUCAGUUGGUUAGAAUGCCUGCCUGUCACGCAGGAGGUCGCGGGUUCGAGUCCCGUCCGGACCG (tRNA (Bacillus subtilis); 5'-GMPS, tRNA fold)
relative affinity (PRORP1 77-572 N136A (Arabidopsis thaliana, UniProt Q66GI4); fluorescence anisotropy; folded RNA; NaCl 330 mM; reference: wild-type target, higher = weaker binding): 6.3 fold

CCTCTTCCCTCACCTCTTCTTGACCTCATTCGTACCCATTGACCTTCGCAACCACCTGCGAAGGTCAATGGGTACGAATGAGGT (hairpin DNA; hairpin, 5' overhang, dG-C8-FABP 22, 3' ddT)
Kd (polA D424A; SPR; together with: dGTP 100 µM): 660 ± 80 pM

B9 (FNO G29S)
kcat/Km (NC(=O)C[n+]1cccc(C(N)=O)c1; steady-state kinetics; pH 8, 25 °C, together with: F420H2 40 µM): 8.8 ± 1.3 M⁻¹ s⁻¹
